Results of several laboratories.
Each numbered part is a random draw from the data of one study; scales do not carry over between parts. Changes are numbered by the printed parent chain.

Block 1 — method: RNA Bind-n-Seq; form: RNA; sample: in vitro; concentration: 365 nM; relative to: no-protein control; reading: higher = stronger binding
Target: RNA binding protein fox-1 homolog 2, RRM domain, GST-SBP tag (RBFOX2, Homo sapiens, UniProt O43251-10, residues 100-194)
Notes: natural RNA segment, single round, ends assumed
Construct (chain): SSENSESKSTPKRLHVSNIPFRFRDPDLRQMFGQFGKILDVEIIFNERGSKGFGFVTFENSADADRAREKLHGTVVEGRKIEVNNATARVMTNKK
| Strand | RBNS enrichment (R) |
| --- | --- |
| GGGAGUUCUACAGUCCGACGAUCGAAGCACCUUUUGGGUUUGCGAUACCAAUCAACAUAAGGUGUUGUUGACUCGGGUACAAUAAAACUCUCAACACACACAAAGCCCAUCAGGCAAGAGUACAGUAAGCCUAUGGAAUUCUCGGGUGCCAA | 0.499 |
| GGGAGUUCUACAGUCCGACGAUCUUAGGGUUGCUCAACCCAUAUUAUUGGCUGUACAUCCUGGUCACUUCUGACUUCUGUUUUUACUAAUGGAAGCUUUGCAAAUUGAAUUCUCAGUGAGUUGUAUAUUUAUAUGGAAUUCUCGGGUGCCAA | 0.31 |
| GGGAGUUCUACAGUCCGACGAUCGAAAUCUCUUUAGAAGAAACUUUAUGAGUUUAUAAAUGAGAAAACCUUUCAGCAGUUAUGUAGCCUGUAUUCAAUGGUAGGAAAUUACAGGAAAAAAAGUUCUAAGCUUCUGGAAUUCUCGGGUGCCAA | 0.801 |
| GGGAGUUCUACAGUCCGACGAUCUUUUUUAAUUACCCUUUUGCAGGCUCCCACCUUUAAUCUGUUUUAUACCUUGCUUAUUAAAUGAGCGACUUAAAAUGAUUGAAAAUAAUGCUGUUCUUUAGUAGCAACUAUGGAAUUCUCGGGUGCCAA | 0.353 |
| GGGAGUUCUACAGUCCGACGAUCGGUCUCUUUUGGGUCAAAAUCAGUCCUUCAGCUCUAAGGUUGCCCAGCAAAGGAAUCUAGGAAUGACAACUGCAGUGUCCACUCCUAAACACCUCCUUCUCUUACACCCUUGGAAUUCUCGGGUGCCAA | 0.723 |
| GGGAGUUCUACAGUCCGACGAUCCGACCGCCCCAGCCUGUGCCCGCCCCGUGCCUGCCGUGGCUGGUGGGUGGCGGUGGUGGGGCCGGGUGGGCCCCCGCCCAGCGCCUGCUGGAAUGAGAAGCACAGACUCCUGGAAUUCUCGGGUGCCAA | 0.268 |
| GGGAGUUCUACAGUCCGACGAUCUAUCUGUCUACUUAGCGUGGCUGUUUUGAGGGACUGUCCCAUCAGUGAACAAACUGCAUGGCCUUGGAGAGAGACUCUGGGCUCUUGGCUCAGAUGUGUUCAUCAAAUACUGGAAUUCUCGGGUGCCAA | 1.8 |
| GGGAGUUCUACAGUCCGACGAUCCCAAGCAAGGUCAUUGUUGUGAAAAGUCUGUAAAUGCUUCUAACUCUUCCCCCUCUUAAAAUCAUAAUAGUUGUACAGAAUUUUAAAAAGGAAAAGUUUAAAAUACCUAUUGGAAUUCUCGGGUGCCAA | 0.572 |
| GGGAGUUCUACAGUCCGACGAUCUCCCCGUCCCUUUUCUGUCAGCCCAUCACAGCCACCUGCUCUGCUCAGACAGCCAGGCACCAGAAGUGAGAGCAGAAGUCUGCAUCCUGCCGAGCCGCCGCAGACGGAGCUGGAAUUCUCGGGUGCCAA | 0.635 |
| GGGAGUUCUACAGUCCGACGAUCCUUAGCCUGCCCUGCUUCCAAGCGACGGCCAUCCCAGUAGGGGACUUUCCCACACUGUGCCUUUACGAUCAGCGUGACAGAGUAGAAGCUGGAGUGCCUCACCACACGGCUGGAAUUCUCGGGUGCCAA | 0.324 |
| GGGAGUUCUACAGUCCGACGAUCUGUGCAAAAACAUGGAAAAUUGUCACUGACUUUGUUUUGAGGUUUCCCCCAUUUUGCUGCCUUUUGGGACACUUCGUUAAAUACUGGUCUUGGCUGCAUUCUUUUUUUUUUGGAAUUCUCGGGUGCCAA | 0.909 |
| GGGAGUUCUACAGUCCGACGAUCCAAGGACGUUAAAGGCAUUUUAUUCCAGCGUCUUCUAGAGAGCUUAGUGUAUACAGAUGAGGGUGUCCGCUGCUGCUUUCCUUCGGAAUCCAGUGCUUCCACAGAGAUUAUGGAAUUCUCGGGUGCCAA | 0.738 |

Block 2 — target: MAFF, bZIP domain (human); method: DHFR protein complementation; sample: yeast; relative to: wild-type JUN-FOS pair; reading: higher = stronger binding
Notes: single substitutions, most at no-binding floor
Starting sequence: JUN, bZIP domain (human); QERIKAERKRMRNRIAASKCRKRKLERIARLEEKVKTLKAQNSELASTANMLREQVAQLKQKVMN; partner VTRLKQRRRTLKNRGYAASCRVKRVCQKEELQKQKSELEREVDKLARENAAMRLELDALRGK
| Variant | binding fitness [natural log] |
| --- | --- |
| E33S | -1.49 |
| L52E | -1.49 |
| R53I | -1.55 |
| A40L | -1.47 |
| E44A | -1.5 |
| V56Q | -1.44 |
| V56Y | -1.51 |
| E33C | -1.52 |
| L31Q | -1.54 |
| A49L | -1.19 |
| T37I | -1.47 |
| E33T | -1.48 |
| V35W | -1.46 |
| T48R | -1.48 |
| R53S | -1.54 |
| S43K | -1.52 |
| K34H | -1.27 |
| A46G | -1.46 |
| K36T | -1.47 |
| A29P | -1.45 |
| K34G | -1.45 |
| T37A | -1.32 |
| M51S | -1.25 |
| V35Q | -1.41 |
| T37P | -1.47 |

Block 3 — method: protein binding microarray; form: double-stranded DNA, one strand shown; sample: in vitro; concentration: not given; relative to: not given; reading: higher = stronger binding
Target: Histone acetyltransferase KAT6A, winged helix 2, GST fusion (KAT6A, Homo sapiens, UniProt Q92794, residues 85-181)
Notes: 8-mer, flanks averaged, mean of 2 arrays, mostly near background
Construct (chain): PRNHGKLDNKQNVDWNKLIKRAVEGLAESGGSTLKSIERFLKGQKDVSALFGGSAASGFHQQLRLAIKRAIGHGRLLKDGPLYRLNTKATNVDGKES
| Strand | E-score |
| --- | --- |
| AACGGATT | 0.113 |
| GAACTCTA | -0.00314 |
| CTGGCCGA | 0.147 |
| CGGGTCAA | 0.121 |
| CACCATCA | -0.119 |
| CACGTTAA | -0.0451 |
| GAATCCTC | -0.221 |
| GTAGGCGA | 0.0682 |
| AAAGTTAT | 0.111 |
| AGACTCTG | -0.0659 |
| ATATTCGA | -0.0548 |
| CACTAGAC | -0.205 |
| CTCGCGCC | 0.259 |
| CTCCATCA | 0.144 |
| CGCGGACA | 0.0835 |
| ACGTGTTG | 0.0558 |
| ACGAACGC | 0.183 |
| ACCGCAGT | 0.0145 |
| AATCCGCG | 0.191 |
| GATCCTGC | 0.0644 |
| AATAAGTG | -0.127 |
| GAGTGCTA | -0.0518 |
| GCCTACCC | -0.0587 |
| ATCCAAAA | 0.131 |
| AGGCCCCG | -0.0107 |

Block 4 — target: CCNF, cyclin fold, Cln2 fusion (human); method: yeast growth competition, sequencing; sample: yeast; notes: strong parent motif; relative to: not given; reading: higher = stronger binding
Starting sequence: SAMHD1 docking peptide (human); ASKSRVQLFKDDP; partner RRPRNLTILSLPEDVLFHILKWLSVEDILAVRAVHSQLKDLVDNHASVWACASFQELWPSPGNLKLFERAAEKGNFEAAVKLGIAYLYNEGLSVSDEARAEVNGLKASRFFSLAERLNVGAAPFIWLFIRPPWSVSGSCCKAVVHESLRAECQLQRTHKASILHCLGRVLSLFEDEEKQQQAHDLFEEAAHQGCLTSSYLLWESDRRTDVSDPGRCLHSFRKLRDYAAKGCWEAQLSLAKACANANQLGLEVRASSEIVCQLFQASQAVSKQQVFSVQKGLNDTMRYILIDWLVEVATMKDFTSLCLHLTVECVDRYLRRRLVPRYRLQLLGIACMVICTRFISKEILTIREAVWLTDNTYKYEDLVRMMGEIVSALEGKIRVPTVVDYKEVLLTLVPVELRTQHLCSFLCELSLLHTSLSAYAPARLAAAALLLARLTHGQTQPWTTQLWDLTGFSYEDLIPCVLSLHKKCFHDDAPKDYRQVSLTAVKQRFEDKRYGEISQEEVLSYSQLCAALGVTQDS
| Variant | normalised enrichment score |
| --- | --- |
| S2W | 2.95 |
| Q7L | 0.784 |
| K10N | 0.842 |
| D12H | 1.02 |
| K10A | 0.831 |
| Q7N | 0.336 |
| F9M | 0.146 |
| Q7T | 0.358 |
| D12W | 1.5 |
| D12S | 0.758 |
| S2N | 2.05 |
| S2L | 2.01 |
| V6D | -0.441 |
| D11P | 0.902 |
| K3F | 1.96 |
| V6G | 0.193 |
| K10F | 1.21 |

A few entries again (block 3):
| Strand | E-score |
| --- | --- |
| ATATTCGA | -0.0548 |
| CACTAGAC | -0.205 |
| CTCGCGCC | 0.259 |
| CTCCATCA | 0.144 |
| CGCGGACA | 0.0835 |
| ACGTGTTG | 0.0558 |
| ACGAACGC | 0.183 |
